Experimental data of several laboratories.
Every numbered part comes from another study and shows a few of its results, in no order. Changes are numbered by the printed parent chain.

Sample 1 — target: CCND3, cyclin fold, Cln2 fusion (human); method: yeast growth competition, sequencing; sample: yeast; notes: weak parent motif; baseline: not given; reading: higher = stronger binding
Starting sequence: CABLES2 docking peptide (human); ICAKRSLCAAFSV; partner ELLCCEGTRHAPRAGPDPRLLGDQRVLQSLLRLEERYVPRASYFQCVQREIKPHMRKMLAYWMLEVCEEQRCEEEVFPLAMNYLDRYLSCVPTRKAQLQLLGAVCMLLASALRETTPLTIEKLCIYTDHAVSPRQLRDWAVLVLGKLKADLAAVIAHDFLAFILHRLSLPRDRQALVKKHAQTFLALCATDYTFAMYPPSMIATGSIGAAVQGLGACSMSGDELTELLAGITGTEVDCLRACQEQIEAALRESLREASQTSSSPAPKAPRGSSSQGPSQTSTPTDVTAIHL
For `S6A`, “normalised enrichment score” read 0.506.
Under “normalised enrichment score”, `F11A` is recorded as 0.127.
Under “normalised enrichment score”, `K4A` is recorded as -0.422.
`L7A`: “normalised enrichment score” -0.086.
Under “normalised enrichment score”, `C2A` is recorded as -0.26.

Sample 2 — method: RNA Bind-n-Seq; form: RNA; sample: in vitro; concentration: 200 nM; notes: whole 134-nt RNA, ends assumed; together with: 150 mM KCl; baseline: input library; reading: higher = stronger binding
Target: Fragile X messenger ribonucleoprotein 1, C-terminal low-complexity region (Fmr1, Mus musculus, UniProt P35922)
Shared flanks, not repeated: GGGAGUUCUACAGUCCGACGAUC … UGGAAUUCUCGGGUGUCAAGG
With `GUCCUGUGCUACACAUCGUAUGUACCGAAUCGGGGUUUUUGGGGAGGGGUUUUUGGGGAAAGUAUUAUGUUACGCCGUUCGGAUCUGCAC` the log2 enrichment was 0.606.
`UUUGCAGGAUUAAUCACUCCUGAAGAUCGGAAAUAUGGAACAACAAAUCUUCACUUAGAUGUAUCUGAUGCAGCUAAUGUCAUGGUCUAU` gave a log2 enrichment of -2.21.
The log2 enrichment of `AGUCCUGUGCUACACAUCGUAUGUACCGAAUCGGUUUUUGGUUUUUGGGGUUUUUGGAAAGUAUUAUGUUACGCCGUUCGGAUCUGCACU` is reported as -0.502.
The log2 enrichment of `AGAAAGCCCAGGAGGAACCACCUGCCAAGCUGCUGGAUGACCUUUUCCGAAAGACCAAGGCAGCUCCCUGCAUCUAUUGGCUCCCACUGA` is reported as -0.244.
`GUCCUGUGCUACACAUCGUAUGUACCGAAUCGGGGUGGGGAAAAAGGGGAAAAAGGGGAAAGUAUUAUGUUACGCCGUUCGGAUCUGCAC` gave a log2 enrichment of 0.337.
`AGUCCUGUGCUACACAUCGUAUGUACCGAAUCGGGUUUGGGAAAAAAAGGGUUUGGGAAAGUAUUAUGUUACGCCGUUCGGAUCUGCACU` gave a log2 enrichment of 0.467.
For `CCUGUGCUACACAUCGUAUGUACCGAAUCAAAUUUUUUUAAAUUUUUUUAAAUUUUUAAAAAAGUAUUAUGUUACGCCGUUCGGAUCUGC`, the log2 enrichment was -1.06.
With `CCUGUGCUACACAUCGUAUGUACCGAAUCGGGGUUUUUUUGGGGUUUUUGGGGAAAGGGGAAAGUAUUAUGUUACGCCGUUCGGAUCUGC` the log2 enrichment was 0.412.
The log2 enrichment of `UAACUUUAGAGGAGGAUCUGAUGGGUAUGGCAGUGGACGUGGAUUUGGGGAUGGCUAUAAUGGGUAUGGAGGAGGACCUGGAGGUGGCAA` is reported as 0.365.
With `CUGUGCUACACAUCGUAUGUACCGAAUCAAAGUGUGUGUGUGUGUAAAGUGUGUGUGUAAAAAAGUAUUAUGUUACGCCGUUCGGAUCUG` the log2 enrichment was -0.803.
For `UAACUUUAGAGGAGGAUCUGAUGGAUAUGGCAGUGGACGUGGAUUUGGGGAUGGCUAUAAUGGGUAUGGAGGAGGCCCUGGAGGUGGCAA`, the log2 enrichment was 0.314.
With `AAGUCCUGUGCUACACAUCGUAUGUACCGAAUCGGGUUUUGGUUUUGGUUUUGGGGAAAGUAUUAUGUUACGCCGUUCGGAUCUGCACUU` the log2 enrichment was -0.614.
For `UAACUUUAGAGGAGGAUCUGAUGGAUAUGGCAGUGGACGUGGAUUUGGGGAUGGCAAUAAUGGGUAUGGAGGAGGACCUGGAGGUGGCAA`, the log2 enrichment was 0.0958.
The log2 enrichment of `UAACUUUAGAGGAGGAUCUGAUGGAUAUGGCAGUGGACGUGGAUUUGGGGGUGGCUAUAAUGGGUAUGGAGGAGGACCUGGAGGUGGCAA` is reported as 0.0617.

Sample 3 — method: protein binding microarray; form: double-stranded DNA, one strand shown; sample: in vitro; concentration: not given; baseline: not given; reading: higher = stronger binding
Target: Histone acetyltransferase KAT6A, winged helix 2, GST fusion (KAT6A, Homo sapiens, UniProt Q92794, residues 85-181)
Notes: 8-mer, flanks averaged, mean of 2 arrays, mostly near background
Construct (chain): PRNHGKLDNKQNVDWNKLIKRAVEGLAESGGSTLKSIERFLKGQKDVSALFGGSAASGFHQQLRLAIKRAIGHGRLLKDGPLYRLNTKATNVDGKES
`AGTGAATC` has an E-score of -0.0513.
`CATACCCA` has an E-score of 0.0449.
`CACGGGCG` has an E-score of -0.0366.
With `AAGTTGAC` the E-score was 0.00404.
`GAACCATC` has an E-score of -0.0559.
`CTGCAAAC` has an E-score of 0.0597.
`ACCGAAAG` gave an E-score of 0.025.
The E-score of `AAATAATT` is reported as 0.236.
For `ATCCTTCA`, the E-score was -0.133.
`ACACTCTC` has an E-score of -0.0886.
With `AAAGTATG` the E-score was -0.133.
`GGGCCAAA` has an E-score of 0.0256.
The E-score of `ATCTGAAT` is reported as -0.0147.
`GTTTTCGA` has an E-score of 0.141.
With `GCGTAATA` the E-score was -0.0622.
For `GCTTTCCA`, the E-score was 0.131.

Sample 4 — method: DHFR PCA, deep sequencing; sample: yeast; together with: (+)-ABA 58 µM; baseline: wild-type fitted maximum; reading: higher = stronger binding
Target: ABI1, truncated, D143A, DHFR fusion (Arabidopsis thaliana)
Notes: methotrexate growth selection, single substitutions
Starting sequence: PYL1, truncated, DHFR fusion (Arabidopsis thaliana); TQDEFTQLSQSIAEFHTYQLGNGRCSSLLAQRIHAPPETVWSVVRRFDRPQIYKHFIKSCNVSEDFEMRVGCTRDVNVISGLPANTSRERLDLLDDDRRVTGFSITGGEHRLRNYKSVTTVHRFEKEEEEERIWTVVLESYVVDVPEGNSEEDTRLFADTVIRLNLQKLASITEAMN; partner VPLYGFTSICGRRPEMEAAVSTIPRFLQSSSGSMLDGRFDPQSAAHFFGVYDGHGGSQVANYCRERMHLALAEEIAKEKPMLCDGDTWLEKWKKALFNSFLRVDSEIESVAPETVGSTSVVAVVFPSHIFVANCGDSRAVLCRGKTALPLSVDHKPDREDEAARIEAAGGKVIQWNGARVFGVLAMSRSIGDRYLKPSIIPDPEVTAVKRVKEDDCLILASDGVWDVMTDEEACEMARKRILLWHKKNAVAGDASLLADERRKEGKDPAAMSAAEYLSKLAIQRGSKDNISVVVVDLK
Under “relative binding score”, `Y53H` is recorded as 74%.
`Q10A` — result for “relative binding score”: 99.6%.
For `T73G`, “relative binding score” read 49.9%.
`I52P` — result for “relative binding score”: 15.8%.
`V100W`: “relative binding score” 5.05%.
`S87K`: “relative binding score” -10.4%.
`F66E`: “relative binding score” 79.3%.
`T135V` — result for “relative binding score”: 34.9%.
`H55F` — result for “relative binding score”: 76.5%.
For `R74I`, “relative binding score” read -0.916%.
`T106P`: “relative binding score” 5.14%.
`T119V` — result for “relative binding score”: 64.9%.
For `D3N`, “relative binding score” read 78.3%.
`G81F`: “relative binding score” -22.2%.
Under “relative binding score”, `E109D` is recorded as 113%.

Sample 5 — method: protein-binding microarray; form: double-stranded DNA, one strand shown; sample: in vitro; concentration: 940 nM top; notes: 60-bp whole probe; together with: salmon DNA 0.4 mg/ml; baseline: random background probes; reading: higher = stronger binding; shared flanks, not repeated: GCCTAGCAC … GTCTTGATTCGCTTGACGCTGCTG
Target: Interferon regulatory factor 5, full length, phosphomimetic (IRF5, Homo sapiens, UniProt Q13568-2, residues 1-514, S451D/S453D/S456D/S462D)
`TAAGGTCTCCTTCTCCTTTAGTGCTAG`: “fitted relative affinity” 0.592 z-score.
`TATCCTTCCCCTCTAGGTTCGTGCTAG` — result for “fitted relative affinity”: 0.605 z-score.
For `TAAGATATCAGTTTCGATTAGTGCTAG`, “fitted relative affinity” read 8.06 z-score.
Under “fitted relative affinity”, `GACCGTCTCCTACTGCTGACGTGCTAG` is recorded as 0.0554 z-score.
For `CACGGACTGGGTTTCGGGACGTGCTAG`, “fitted relative affinity” read 2.61 z-score.
For `GACGGTTTCCTTCTACTGACGTGCTAG`, “fitted relative affinity” read 1.86 z-score.
`TTTTTTTTTTTTTTTGGAATGTGCTAG` — result for “fitted relative affinity”: 0.817 z-score.
For `GACGGACTGCTTCTCCTGTCGTGCTAG`, “fitted relative affinity” read 0.454 z-score.
`GATGGACTGGGTCTCGGGACGTGCTAG`: “fitted relative affinity” -0.251 z-score.
Under “fitted relative affinity”, `GACGGTCTCCTTATCCTGAAGTGCTAG` is recorded as 0.283 z-score.
`TTAGGACTGCTTCTCCTTTCGTGCTAG` — result for “fitted relative affinity”: -0.177 z-score.
`TTTTTTATCAATCATTTTCGTGTGCTA`: “fitted relative affinity” 1.63 z-score.
Under “fitted relative affinity”, `TTAGGCATCGACTATCGGTTAGTGCTA` is recorded as -0.0584 z-score.
Under “fitted relative affinity”, `GACGGTCTCGGTATCGGTACGTGCTAG` is recorded as 6.04 z-score.

Sample 6 — target: UBE2B UBC core domain (UniProt P63146); method: yeast two-hybrid; sample: yeast; notes: mostly zero background; baseline: not given; reading: higher = stronger interaction
UniProt P63146, sequence (whole entry, looked up): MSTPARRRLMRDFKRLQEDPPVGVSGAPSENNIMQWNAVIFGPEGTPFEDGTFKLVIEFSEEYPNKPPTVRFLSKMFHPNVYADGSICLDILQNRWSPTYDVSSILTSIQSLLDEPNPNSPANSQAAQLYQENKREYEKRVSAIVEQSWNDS
B1: TRIM72 RING domain (UniProt Q6ZMU5); chain APGLLHQELSCPLCLQLFDAPVTAECGHSFCRACLGRVAGEPAADGTVLCPCCQAPTRPQALST
B2: MID1 RING domain (UniProt O15344); chain METLESELTCPICLELFEDPLLLPCAHSLCFNCAHRILVSHCATNESVESITAFQCPTCRHVITLSQRGL
B3: IRF2BPL RING domain (UniProt Q9H1B7); chain SPMANSGPLCCTICHERLEDTHFVQCPSVPSHKFCFPCSRESIKAQGATGEVYCPSGEKCPLVGSNVP
For `YWAMDSTFELCKICAESNKDVKIEPCGHLLCSCCLAAWQHSDSQTCPFCRCEIKGWEAVS (CBLC RING domain (UniProt Q9ULV8))`, “lacZ reporter activity” read 0.
`B1 (TRIM72 RING domain)`: “lacZ reporter activity” 0.
`B2 (MID1 RING domain)`: “lacZ reporter activity” 0.
For `QLQDIKEQTMCPVCLDRLKNMIFLCGHGTCQLCGDRMSECPICRKAIERRILLY (MIB1 RING domain (UniProt Q86YT6))`, “lacZ reporter activity” read 0.
`PEELQAMDNVCIICREEMVTGAKRLPCNHIFHTSCLRSWFQRQQTCPTCRMDVLRASLPA (SYVN1 RING domain (UniProt Q86TM6))` — result for “lacZ reporter activity”: 0.
`B3 (IRF2BPL RING domain)`: “lacZ reporter activity” 0.
